Experimental data collected from several papers.
Each numbered part is a random draw from the data of one study; scales do not carry over between parts.

Sample 1 — technique: RNA Bind-n-Seq; molecule type: RNA; sample: in vitro; concentration: not given; reference: input RNA pool; reading: higher = stronger binding
Target: RING finger protein unkempt homolog, zinc fingers 1-6, GST-SBP tag (UNK, Homo sapiens, UniProt Q9C0B0, residues 30-357)
Setting: RNA with constant flanks, human and mouse sites, ends assumed
Shared flanks, not repeated: GGGAGUUCUACAGUCCGACGAUC … CAACAGAGGAUUGAGCAUCA
Target sequence (chain): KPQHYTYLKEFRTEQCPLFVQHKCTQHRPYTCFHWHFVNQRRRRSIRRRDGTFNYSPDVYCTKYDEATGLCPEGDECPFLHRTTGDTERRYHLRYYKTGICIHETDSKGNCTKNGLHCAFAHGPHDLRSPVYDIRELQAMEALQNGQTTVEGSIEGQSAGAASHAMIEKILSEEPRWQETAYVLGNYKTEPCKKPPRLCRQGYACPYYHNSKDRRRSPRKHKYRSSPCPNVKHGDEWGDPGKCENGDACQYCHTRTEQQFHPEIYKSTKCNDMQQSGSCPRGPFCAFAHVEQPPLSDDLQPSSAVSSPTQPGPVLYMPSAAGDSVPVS
| Sequence | bound/input enrichment [ratio] |
| --- | --- |
| UUUCAUCCAGAGUUUGCUAAUCCAGACUUUACACAACCUAUCUCAGAAGUUGUAGAUGAAGUAAUUCAGAAUUGUCCUAUUGAUGUCAGACGUCCUCUCUACAAGAAUAUUGUCCUCUCU | 0.131 |
| AAAGAGAAACUAAAGCAACUAAUAGAGAAGAGGAUUGGCAAAGAGAAUUUCAUAGAGAAACUAGGAUUUAUUAGCAAACAUGAGUUAUAUUCCAGAGCGUCUCAGAAACCCCAGCCAAAC | 7.73 |
| AUUCUUGGCGGAUAGCCUACUUUAUGAAGGUAAGGAAUGAACUCCUACCCUUCUUGGGUCAUUCUCUGUACUGAUGCGUUAGUCUUAUAAUACUUUGCACCAACCUGAGGAAUCUUCUAG | 0.294 |
| UCUGUUCUCUUGGAUGAGAUACUGAAGGACCCAGAGCACCCUAGCAAGGAUUACAUAAUGAACUUUGAGAUCCGGUCCCUGCGAGACAGCCGAGCAUUGAUUGAGAAAGUUGGAAUUGAA | 0.358 |
| UUGGCUGCAGUGCUGUUGUCAGGCUUGACAACCUCAUGUCCCACCUCAGUGACUGUGAGCACAACCCGAAGCGGCCUGUGACCUGUGAGCAGGGCUGUGGCCUGGAGAUGCCCAAAGAUG | 0.0558 |
| UUUCGGAACUAUAUCAUGGACUUCCAAGUUGGGAAGGAGUUUGAGGAAGAUCUGACAGGCAUAGACGACCGCAAGUGCAUGACCACUGUGAGCUGGGAUGGUGACAAACUCCAGUGUGUG | 0.233 |
| CCGGAAGAACAUUUGGAAGGGGUGAUGAAAAUUAUGUCCCCCAACAACAACAAGCUACACAGCUUCCACAUUCCUAAGAAAGGCCCAGCCGCCAAGAAGCCAGGGAAGCACAGUGACAAA | 0.179 |
| CUAUGCAAAGACUCCCUUUCCUCUCUGACCUCCUGUGCCCUAAGGUCUUGGUUUGUUUGAUUAUUUAUUUAUUUAUUUGCCAAAAAGUUUCUCUCCUUGACUCACAGAACGUAUCCUAAU | 0.987 |

Sample 2 — technique: RNA Bind-n-Seq; molecule type: RNA; sample: in vitro; concentration: 20 nM; setting: 6-mer, flanks averaged, single round; with: 150 mM LiCl; reference: input library; reading: higher = stronger binding
Target: TAR DNA-binding protein 43, full length, His tag (TARDBP, Homo sapiens, UniProt Q13148, residues 1-414)
| Sequence | 6-mer enrichment (R) |
| --- | --- |
| AUAAUU | 1.1 |
| UCGUCC | 0.956 |
| AGGGGA | 1.19 |
| CGCUCC | 0.925 |
| UAGAAG | 0.966 |
| GCUCCA | 0.927 |
| GUGCCA | 1.01 |
| AGUAAG | 0.975 |

Sample 3 — technique: competition protein-binding microarray; molecule type: double-stranded DNA, one strand shown; sample: in vitro; concentration: 2 µM; with: Cbf1 competitor, 0.05 µM; reading: higher = stronger binding; shared flanks, not repeated: … GTCTTGATTCGCTTGACGCTGCTG
Target: Phosphate system positive regulatory protein PHO4, full length, GST-tagged (PHO4, Saccharomyces cerevisiae, UniProt P07270, residues 1-312)
Setting: whole 60-bp probe, lowest competitor level
Residues (chain): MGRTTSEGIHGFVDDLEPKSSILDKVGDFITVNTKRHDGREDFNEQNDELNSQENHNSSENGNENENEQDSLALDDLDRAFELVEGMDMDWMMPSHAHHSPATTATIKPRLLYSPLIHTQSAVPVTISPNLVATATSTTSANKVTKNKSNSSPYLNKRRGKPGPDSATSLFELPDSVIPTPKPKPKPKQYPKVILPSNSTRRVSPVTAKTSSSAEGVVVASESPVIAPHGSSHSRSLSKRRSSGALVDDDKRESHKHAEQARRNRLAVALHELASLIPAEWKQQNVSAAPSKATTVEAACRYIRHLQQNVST
| Sequence | fluorescence intensity [a.u.] |
| --- | --- |
| CTTTCCCGATCTTGTGGGGTGGGTGTAGCACATTTG | 5770 |
| CGGGGTTAAGTTTGTCACTAGACTTGCTTGCAGCAG | 3290 |
| CTAACGAAGGTTTGTGGCGTGGGTGACAAGCCAAGT | 6990 |
| TTTTGAATTCACCATCACGTTATTACCAGAACAATT | 7980 |
| AATCGTTAACACCGTCACCTGTCATTGCGCAGAACT | 4510 |
| TGACTCACCCCCGGCCACGTGGCCGGTAGGAGGCCC | 14200 |
| GAACCTCACTGAAGCACCGTGAATAACCCCATAAAT | 4320 |
| TGCGCAACAACTTTTCACGTGGTCTTATGTCTAGAA | 11900 |

Other studies, line by line
| Molecule | target | assay | system | conditions | endpoint | result |
| --- | --- | --- | --- | --- | --- | --- |
| YEPEMQAQV | HLA class I histocompatibility antigen, A alpha chain, allele A*80:01 (Homo sapiens, UniProt P04439) | peptide-MHC binding | peptide | concentration not given | binding | inactive |

Some of these lines once more (sample 3):
| Sequence | fluorescence intensity [a.u.] |
| --- | --- |
| TGACTCACCCCCGGCCACGTGGCCGGTAGGAGGCCC | 14200 |
| AATCGTTAACACCGTCACCTGTCATTGCGCAGAACT | 4510 |
| CGGGGTTAAGTTTGTCACTAGACTTGCTTGCAGCAG | 3290 |
